Published values collected from several papers.
Protocols differ between the studies behind these lines. ± gives the spread as reported.

Protein sequences, listed by entry. Tags and fused reporters are not part of them.
UniProt P35372, whole entry: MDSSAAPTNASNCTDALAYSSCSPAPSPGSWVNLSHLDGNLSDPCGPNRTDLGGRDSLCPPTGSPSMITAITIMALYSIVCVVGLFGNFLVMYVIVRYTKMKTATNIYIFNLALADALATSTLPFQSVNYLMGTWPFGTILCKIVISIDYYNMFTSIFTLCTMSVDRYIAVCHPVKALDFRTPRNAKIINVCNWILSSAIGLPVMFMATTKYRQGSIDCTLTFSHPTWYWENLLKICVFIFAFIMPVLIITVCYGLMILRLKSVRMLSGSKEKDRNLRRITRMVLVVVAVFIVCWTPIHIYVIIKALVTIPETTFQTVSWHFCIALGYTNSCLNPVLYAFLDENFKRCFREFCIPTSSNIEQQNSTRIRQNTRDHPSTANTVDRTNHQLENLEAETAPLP

Substance	tested on	assay	system	conditions	quantity	value
Cl.O=C1NCN(c2ccccc2)C12CCN([C@H]1CC[C@@H]3CCCc4cccc1c43)CC2		motor coordination impairment, accelerating rotarod	mouse male	intraperitoneal, 30 min	minimal effective dose	1 mg/kg
CCOP(=S)(OCC)Oc1nc(Cl)c(Cl)cc1Cl			male ES1+/+ mice	transdermal, 100 mg/kg, 24 h	body temperature	32 °C
C[C@H](NP(=O)(Nc1ccn([C@H]2CS[C@@H](COP(=O)(N[C@@H](C)C(=O)OCc3ccccc3)N[C@@H](C)C(=O)OCc3ccccc3)O2)c(=O)n1)N[C@@H](C)C(=O)OCc1ccccc1)C(=O)OCc1ccccc1	HeLa TK-deficient	cell proliferation		3 d	IC50	> 250 µM
CNC(=O)Oc1cccc2c1OC(C)(C)C2			male ES1−/− mice	subcutaneous, 1 mg/kg	duration of hypothermia	1 h
CCCSc1nc(N[C@@H]2C[C@H]2c2ccc(F)c(F)c2)c2nnn([C@@H]3C[C@H](OCCO)[C@@H](O)[C@H]3O)c2n1			STEMI patients, plasma	180 mg loading dose, 6 h, median, added: fentanyl	AUC(0-6 h)	1390 ng·h/mL
Pillar[6]MaxQ			Swiss Webster mice, female	136 mg/kg	time to return to baseline behaviour	2 to 3 h
CCOP(=S)(OCC)Oc1ccc([N+](=O)[O-])cc1			male ES1−/− mice	subcutaneous, 12.5 mg/kg, 3 h	surface body temperature	33 °C
C[C@H](NP(=O)(Nc1ccn([C@H]2CS[C@@H](CO)O2)c(=O)n1)N[C@@H](C)C(=O)OCc1ccccc1)C(=O)OCc1ccccc1	HeLa	cell proliferation		3 d	IC50	≥ 250 µM
O=C1Cc2ccccc2N1C1CCN([C@H]2CC[C@@H]3CCCc4cccc2c43)CC1 (relative stereo)	Mu-type opioid receptor (OPRM1, Homo sapiens, UniProt P35372)	agonist	cell membranes		EC50	0.409 ± 0.219 µM
C[C@@H]1NC(=O)[C@@H]2CCCN2C(=O)[C@H](CC(N)=O)NC(=O)[C@H](Cc2c[nH]c3ccccc23)NC(=O)[C@@H]2CSSC[C@H](NC1=O)C(=O)NCC(=O)N[C@@H](CCCCN)C(=O)N[C@@H](Cc1c[nH]cn1)C(=O)N[C@@H](Cc1ccc(O)cc1)C(=O)N[C@H](C(N)=O)CSSC[C@H](NC(=O)CN)C(=O)N2		RP-HPLC	mouse serum 25% in water	50 µM, 24 h, 37 °C	remaining peptide	17.28 ± 0.14%
NC12CC3CC(CC(C3)C1)C2	Influenza A virus	viral replication, plaque size reduction	MDCK, A/Swine/Indiana/27-1102/2010 (H3N2)		EC50	68.3 ± 3.1 µM
CC(C)C[C@H](NC(=O)[C@@H]1C[C@@H](O)CN1C(=O)[C@H](Cc1ccccc1)NC(=O)[C@H](CO)NC(=O)[C@H](C)NC(=O)[C@H](Cc1ccccc1)NC(=O)[C@@H](NC(=O)[C@H](CCC(=O)O)NC(=O)[C@H](Cc1c[nH]cn1)NC(=O)[C@@H](NC(=O)[C@@H](NC(=O)[C@H](CCC(N)=O)NC(=O)[C@H](C)NC(=O)[C@@H](N)CC(=O)O)[C@@H](C)O)C(C)C)C(C)C)C(=O)N[C@@H](CC(=O)O)C(=O)N[C@@H](CO)C(=O)N[C@@H](CC(=O)O)C(=O)NCC(=O)N[C@H]1CSSC[C@@H](C(N)=O)NC(=O)[C@H](Cc2ccc(O)cc2)NC(=O)[C@H](Cc2c[nH]cn2)NC(=O)[C@H](CCCCN)NC(=O)CNC(=O)[C@@H]2CSSC[C@H](NC1=O)C(=O)N[C@@H](Cc1c[nH]c3ccccc13)C(=O)N[C@@H](CC(N)=O)C(=O)N1CCC[C@H]1C(=O)N[C@@H](C)C(=O)N2		RP-HPLC	mouse serum 25%	50 µM, 6 h, 37 °C	remaining peptide	86.2 ± 1.18%
CSCC[C@@H]1NC(=O)[C@H](CC(C)C)NC(=O)[C@H](CCCNC(=N)N)NC(=O)[C@H](CO)NC(=O)[C@@H]2CSSC[C@@H]3NC(=O)[C@H](CO)NC(=O)CNC(=O)[C@H]([C@@H](C)O)NC(=O)[C@H](CSSC[C@H](N)C(=O)N[C@@H](CCCCN)C(=O)NCC(=O)N[C@@H](CCCCN)C(=O)NCC(=O)N[C@@H](C)C(=O)N[C@@H](CCCCN)C(=O)N2)NC(=O)[C@H](CSSC[C@@H](C(N)=O)NC(=O)[C@H](CCCCN)NC(=O)CNC(=O)[C@H](CO)NC(=O)[C@H](CCCNC(=N)N)NC3=O)NC(=O)[C@H](CC(=O)O)NC(=O)[C@H](Cc2ccc(O)cc2)NC1=O		RP-HPLC	water	3 h, 100 °C, heat stability	peptide remaining intact	~50%

Excerpt of the above:
Substance	tested on	assay	system	conditions	quantity	value
CSCC[C@@H]1NC(=O)[C@H](CC(C)C)NC(=O)[C@H](CCCNC(=N)N)NC(=O)[C@H](CO)NC(=O)[C@@H]2CSSC[C@@H]3NC(=O)[C@H](CO)NC(=O)CNC(=O)[C@H]([C@@H](C)O)NC(=O)[C@H](CSSC[C@H](N)C(=O)N[C@@H](CCCCN)C(=O)NCC(=O)N[C@@H](CCCCN)C(=O)NCC(=O)N[C@@H](C)C(=O)N[C@@H](CCCCN)C(=O)N2)NC(=O)[C@H](CSSC[C@@H](C(N)=O)NC(=O)[C@H](CCCCN)NC(=O)CNC(=O)[C@H](CO)NC(=O)[C@H](CCCNC(=N)N)NC3=O)NC(=O)[C@H](CC(=O)O)NC(=O)[C@H](Cc2ccc(O)cc2)NC1=O		RP-HPLC	water	3 h, 100 °C, heat stability	peptide remaining intact	~50%
